Results of several laboratories.
Each numbered part is a random draw from the data of one study; scales do not carry over between parts. Substitutions count along the parent as printed.

Study 1
Target: CREBZF, bZIP domain (human)
Technique: DHFR protein complementation
Medium: yeast
Setting: single substitutions, most at no-binding floor
Relative to: wild-type JUN-FOS pair
Direction: higher = stronger binding
Measurement: binding fitness
Starting sequence: JUN, bZIP domain (human); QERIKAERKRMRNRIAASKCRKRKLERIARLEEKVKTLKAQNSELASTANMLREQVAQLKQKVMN; partner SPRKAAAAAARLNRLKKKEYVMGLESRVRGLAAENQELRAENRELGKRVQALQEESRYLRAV
E54V: -1.46 natural log
S47A: -1.5 natural log
L31K: -1.49 natural log
A40F: -1.49 natural log
L31R: -1.52 natural log
N42Y: -1.48 natural log
E33V: -1.37 natural log
K34R: -1.53 natural log

Study 2
Target: Myc proto-oncogene protein, bHLH-zipper, MAX partner unstated (MYC, Homo sapiens, UniProt P01106, residues 368-449)
Chain of UniProt P01106 (368-449, looked up): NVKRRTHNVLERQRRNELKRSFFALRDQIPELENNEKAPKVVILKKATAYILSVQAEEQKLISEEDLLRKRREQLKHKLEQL
Technique: protein-binding microarray
Form: double-stranded DNA, one strand shown
Medium: in vitro
Tested at: not given
Setting: k-mer, scored over probes, only values ≥0.25
Direction: higher = stronger binding
Measurement: E-score
CACGTCGG: 0.25
CCCCTCCA: 0.368
AGCGCGTG: 0.45
AACGCACG: 0.391
ACACGCTA: 0.313
AACACGAG: 0.433
AGCACGAG: 0.401
ACGCGGTA: 0.32

Further values, each from its own experiment
NCKAP1: NCKAP1 (Homo sapiens, UniProt Q9Y2A7)
P1: PafA, mature enzyme, eGFP fusion (Elizabethkingia meningoseptica, UniProt Q9KJX5); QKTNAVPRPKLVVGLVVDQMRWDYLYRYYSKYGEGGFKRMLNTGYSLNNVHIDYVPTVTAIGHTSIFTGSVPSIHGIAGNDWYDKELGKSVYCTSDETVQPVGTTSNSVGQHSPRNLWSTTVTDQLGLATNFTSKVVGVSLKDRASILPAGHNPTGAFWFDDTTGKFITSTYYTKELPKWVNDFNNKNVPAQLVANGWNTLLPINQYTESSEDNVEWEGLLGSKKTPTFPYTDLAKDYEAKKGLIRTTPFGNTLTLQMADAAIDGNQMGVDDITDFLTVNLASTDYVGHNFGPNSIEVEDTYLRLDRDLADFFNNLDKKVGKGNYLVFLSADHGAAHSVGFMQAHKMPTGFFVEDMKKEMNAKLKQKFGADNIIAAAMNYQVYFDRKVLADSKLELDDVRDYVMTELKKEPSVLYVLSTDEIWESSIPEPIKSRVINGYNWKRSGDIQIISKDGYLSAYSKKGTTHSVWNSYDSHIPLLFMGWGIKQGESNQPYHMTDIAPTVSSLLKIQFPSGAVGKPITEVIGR
FLOT1 (Homo sapiens, UniProt O75955)  interaction screen (EP400 (Homo sapiens, UniProt Q96L91); cross-linking MS; hits only): cross-linked
nisin  Kd (lipid II binding, isothermal titration calorimetry; DOPC vesicles with lipid II): 70 nM
ABI2 (Homo sapiens, UniProt Q9NYB9)  interaction screen (NCKAP1; cross-linking MS; hits only): cross-linked
P1 D308V  oxyanion analog dissociation constant (tungstate, free oxyanion; microfluidic competitive inhibition; in vitro, cell-free expressed; not given, derived from inhibition constants, unchanged parent 2230 nM; lower = stronger binding): 2860 nM
CYFIP1 (Homo sapiens, UniProt Q7L576)  interaction screen (NCKAP1; cross-linking MS; hits only): cross-linked
SFPQ (Homo sapiens, UniProt P23246)  cross-linked residues (CACNA1C (Homo sapiens, UniProt Q13936); cross-linking MS; cell fractions; with: DMTMM): K502 to E785

Repeated from above (further values, each from its own experiment):
ABI2 (Homo sapiens, UniProt Q9NYB9)  interaction screen (NCKAP1; cross-linking MS; hits only): cross-linked
